# Measurements of several laboratories.
# Numbered parts are unrelated; each lists some results of a single study. “And” joins repeats or separate records; there may be more than shown.

# Sample 1
# Target: Histone acetyltransferase KAT6A, both winged helices, GST fusion (KAT6A, Homo sapiens, UniProt Q92794, residues 1-181)
# Method: protein binding microarray
# Form: double-stranded DNA, one strand shown
# Medium: in vitro
# Tested at: not given
# Notes: 8-mer, flanks averaged, mean of 2 arrays, mostly near background
# Reference: not given
# Direction: higher = stronger binding
# Residues (chain): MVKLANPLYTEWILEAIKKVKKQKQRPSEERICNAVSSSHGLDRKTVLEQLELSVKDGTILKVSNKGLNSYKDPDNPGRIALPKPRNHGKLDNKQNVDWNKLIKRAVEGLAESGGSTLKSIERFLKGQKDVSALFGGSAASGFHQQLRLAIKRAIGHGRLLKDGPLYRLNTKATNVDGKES
Sequence,E-score
TGATAGCA,-0.123
AGACGAGC,-0.00992
CATCAAAA,0.0699
CGCAGACG,0.256
CAGATCGA,-0.177
TACCCAAA,-0.151
CAATTTTC,-0.182
CGAGAGAA,-0.038

# Sample 2
# Target: RNA binding protein fox-1 homolog 2, RRM domain, GST-SBP tag (RBFOX2, Homo sapiens, UniProt O43251-10, residues 100-194)
# Method: RNA Bind-n-Seq
# Form: RNA
# Medium: in vitro
# Tested at: 365 nM
# Notes: natural RNA segment, single round, ends assumed
# Reference: no-protein control
# Direction: higher = stronger binding
# Target sequence (chain): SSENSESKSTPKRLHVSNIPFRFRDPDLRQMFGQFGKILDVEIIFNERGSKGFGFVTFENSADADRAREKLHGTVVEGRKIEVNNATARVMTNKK
Sequence,RBNS enrichment (R)
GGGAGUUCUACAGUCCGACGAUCUCCAUGUUGGGAGAUGUUGGGGUAAGCAAUGGAGGCUAUAUCCUCAAGAGCUGUCACAGACAAGUGGCAGAAUACAGGCACCAUGAGCUCAGGUUCUGACAAGGUGCAAAUGGAAUUCUCGGGUGCCAA,0.502
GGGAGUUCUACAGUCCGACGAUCUUUUUCAUAAACUGGACCAUAAUUCUUCAUGUUUACCAUGGAGAGUUUUACAGAAAUUUGGCUGCACUCUGAGAGUGCUUACUCACAGUUUAUUUGCUUUUUUUAAAAAGUGGAAUUCUCGGGUGCCAA,0.296
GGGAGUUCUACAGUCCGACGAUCGCAGGUGAAUCAUAAAGUCAGUGAAGACGCCGCCCUCUGAUUCUCCCCACUGUAGGGGGAAGGAAGGGAGUGACUUCAGUGGGUUCUCUACCAAAAACAGGGCUAAGGGCUGGAAUUCUCGGGUGCCAA,0.364
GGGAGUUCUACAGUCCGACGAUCUCUGCAUGAAGGAUACAUCGUGGUGCCACAUGCUUUAAGCAAUUUAAACAAGAGAGAUAAGAGGAAAAUGCAACCACCACAUCUGACUUGCCCAAUGUAGACUUUCCUUUUGGAAUUCUCGGGUGCCAA,1.26
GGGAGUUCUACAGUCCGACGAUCUAUUACUAGUGGAAUCAACUGGAAACAUAUCUCAAUCCAUGGCUAGAUAAUGUGUAUCCUAAUAAAAUUGUUCUGCUUGUAUAUGAAAUAUUAAUAUCUACCAACACAUAUGGAAUUCUCGGGUGCCAA,0.926
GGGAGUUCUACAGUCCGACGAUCGCAAAAAACCCUGUAAAUCAGGAGAUAUAAGCACAUCUGCACCCAGAAUAGGCCCAUAUGAUAGGGCAACCCUGAGCUUAAACAAUGACAUCUUCAAGGGUAGAACUAAUUGGAAUUCUCGGGUGCCAA,0.641
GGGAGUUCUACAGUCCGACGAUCAGUGCAGUGGUCUUCAUCUUCCCCAACUUGCUUCUCAGAGCUGGGAUGUAUUCCAGAGCCUGAUGUUUUUAUUCAAACCACAGAAAAGUUUUCUUUAAGUAGCCUGUGCAUGGAAUUCUCGGGUGCCAA,1.13
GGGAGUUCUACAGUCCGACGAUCCUGCCAUGCAAUUGAUAUAGUAAAUCGACUAGAAAAUUAGUAUGCCACUUAAUUAAGAUAAAAAUGCUUAGUUAUUUAUGUUAGUAUCUAGCUUUUAAAGAACUACAUGUUGGAAUUCUCGGGUGCCAA,0.437

# Mixed results
# rep main protease: Replicase polyprotein 1ab, main protease (rep, Severe acute respiratory syndrome coronavirus 2, UniProt P0DTD1)
Compound,target,test,test system,conditions,measurement,result
Cc1cc(-c2ccc(/C=C3/SC(Nc4ccc(Cl)c(C(=O)O)c4)=NC3=O)o2)c([N+](=O)[O-])cc1C,rep main protease,"enzyme activity, inhibitor",,,IC50,> 20 µM
C[C@@H]1C[C@H]2[C@@H]3CCC4=CC(=O)C=C[C@]4(C)[C@@]3(F)[C@@H](O)C[C@]2(C)[C@@]1(O)C(=O)CO,"Replicase polyprotein 1ab, nsp12 with nsp7/nsp8 (rep, Severe acute respiratory syndrome coronavirus 2, UniProt P0DTD1)",enzyme activity,,20 µM,inhibition,18%
Oc1cc2c(cc1O)CN(C(=S)NCCc1ccc(Cl)cc1)CCC2,rep main protease,"enzyme activity, inhibitor",,"20 µM, hit confirmation",inhibition,52.5%
CCOC(=O)C1=C(N)Oc2ccc(Br)cc2[C@H]1[C@H](C#N)C(=O)OCC,"Replicase polyprotein 1ab, nsp13 helicase (rep, Severe acute respiratory syndrome coronavirus 2, UniProt P0DTD1)",helicase activity,SARS-CoV-2,,IC50,46.9 µM and 44.6 µM

# A few entries again (sample 2):
Sequence,RBNS enrichment (R)
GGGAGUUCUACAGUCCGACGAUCCUGCCAUGCAAUUGAUAUAGUAAAUCGACUAGAAAAUUAGUAUGCCACUUAAUUAAGAUAAAAAUGCUUAGUUAUUUAUGUUAGUAUCUAGCUUUUAAAGAACUACAUGUUGGAAUUCUCGGGUGCCAA,0.437
